# Experimental data from different studies.
# Lines come from different studies, so protocols differ. Values joined by “and” are separate records of one study, mostly repeats; a detail may differ. Numbers after ± are the reported error.
Structure (SMILES),assay,test system,conditions,how to read,endpoint,value
O=C1NC2(CC2)COc2ncc(F)cc2[C@H]2COCCN2c2ccn3ncc1c3n2,,"Sprague-Dawley rat, female, serum","oral, 5 mg/kg/day, 4 weeks daily, end of treatment",,gamma-glutamyltransferase activity,0.4 ± 0.3 U/L
CCCC[C@H]1C(=O)N(C)[C@@H](CCCC)C(=O)N[C@@H](CCCCNC(=S)Nc2ccc(CN3CCN(CC(=O)O)CCN(CC(=O)O)CC3)cc2)C(=O)N[C@H](C(=O)NCC(N)=O)CSCC(=O)N[C@@H](Cc2ccc(O)cc2)C(=O)N(C)[C@@H](C)C(=O)N[C@@H](CC(N)=O)C(=O)N2CCC[C@H]2C(=O)N[C@@H](Cc2cnc[nH]2)C(=O)N[C@@H](CCC(=O)O)C(=O)N2C[C@H](O)C[C@H]2C(=O)N[C@@H](Cc2c[nH]c3ccccc23)C(=O)N[C@@H](CO)C(=O)N[C@@H](Cc2cn(CC(=O)O)c3ccccc23)C(=O)N1C [fluorine-18 labelled],"region of interest, PET/CT","HCT-116 MSI xenograft, huPBMC NSG mouse, female, tumour","intravenous, 60 min, with: saline treated",,median tumour uptake,5.56 %ID/mL
CC(CCC(=O)NCC(=O)O)C1CCC2C3CCC4CC(OC5OC(C(=O)O)C(O)C(O)C5O)CCC4(C)C3CC(O)C12C (stereo not shown),refers to: glucuronide to parent ratio,"men, plasma",dose not given,reference: T/C over T/T,ratio of metabolic ratios,1.74
CCCCCCCCCCCCCCCC(=O)N[C@@H](CCC(=O)NCCOCCOCCC(=O)NCCOCCOCCC(=O)NCCCC[C@H](NC(=O)[C@H](CC(=O)O)NC(=O)[C@H](CC(C)C)NC(=O)[C@H](Cc1ccc(O)cc1)NC(=O)[C@H](CCCCN)NC(=O)[C@H](CO)NC(=O)[C@H](Cc1ccc(O)cc1)NC(=O)[C@H](CC(=O)O)NC(=O)[C@H](CO)NC(=O)[C@@H](NC(=O)[C@H](Cc1ccccc1)NC(=O)[C@@H](NC(=O)CNC(=O)[C@H](CCC(N)=O)NC(=O)[C@@H](CO)NC(=O)[C@@H](N)Cc1c[nH]cn1)[C@@H](C)O)[C@@H](C)O)C(=O)N[C@@H](CCCNC(=N)N)C(=O)N[C@@H](CCCNC(=N)N)C(=O)N[C@@H](C)C(=O)N[C@@H](CCC(N)=O)C(=O)N[C@@H](CC(=O)O)C(=O)N[C@@H](Cc1ccccc1)C(=O)N[C@H](C(=O)N[C@@H](CCC(N)=O)C(=O)N[C@@H](Cc1c[nH]c2ccccc12)C(=O)N[C@@H](CC(C)C)C(=O)N[C@@H](CC(C)C)C(=O)N[C@@H](CC(N)=O)C(=O)N[C@H](C(=O)NCC(=O)NCC(=O)N1CCC[C@H]1C(=O)N[C@@H](CO)C(=O)N[C@@H](CO)C(=O)NCC(=O)N[C@@H](C)C(=O)N1CCC[C@H]1C(=O)N1CCC[C@H]1C(=O)N1CCC[C@H]1C(=O)N[C@@H](CO)C(N)=O)[C@@H](C)O)C(C)C)C(=O)O,,"rhesus monkey, both sexes, plasma","subcutaneous, 20 µg/kg, multiple doses, day 7",,AUC(0-inf),93.7 ± 29.2 ng·h/mL
CSCC[C@H](NC(=O)[C@@H](NC(=O)[C@H](CC(C)C)NC(=O)[C@@H](NC(=O)[C@H](Cc1c[nH]cn1)NC(=O)CCCCCNC(=O)[C@H](CCCNC(=N)N)NC(=O)[C@H](CCCNC(=N)N)NC(=O)[C@H](CCCNC(=N)N)NC(=O)[C@H](CCC(N)=O)NC(=O)[C@H](CCCNC(=N)N)NC(=O)[C@H](CCCNC(=N)N)NC(=O)[C@H](CCCCN)NC(=O)[C@H](CCCCN)NC(=O)[C@H](CCCNC(=N)N)NC(=O)CNC(=O)[C@@H](N)Cc1ccc(O)cc1)C(C)C)C(C)C)C(=O)N[C@@H](CS)C(=O)N[C@@H](C)C(=O)N[C@H](C(N)=O)[C@@H](C)O,,C57BL/6J mice,"Alzet osmotic pump, 3 mg/kg, 8 weeks",,MCHC,31.3 g/dL and 30.7 g/dL and 30.3 g/dL
CC[C@H](C)[C@@H]1NC(=O)[C@H](Cc2ccc(O)cc2)NC(=O)CCCSC[C@@H](C(=O)N(CC(=O)N[C@@H](CC(C)C)C(=O)NCC(N)=O)Cc2ccc(F)cc2)NC(=O)[C@H](CC(N)=O)NC(=O)[C@H](CCC(N)=O)NC1=O,,human,"intranasal, 300 µg single dose",,deaths,0%
CC[C@H](C)[C@H](NC(=O)[C@H](CCCCN)NC(=O)CNC(=O)[C@H](CC(C)C)NC(=O)[C@H](Cc1ccccc1)NC(=O)[C@H](CCCCN)NC(=O)[C@H](CO)NC(=O)[C@H](Cc1ccccc1)NC(=O)[C@H](Cc1c[nH]c2ccccc12)NC(=O)[C@H](CCC(N)=O)NC(=O)[C@@H](NC(=O)[C@H](Cc1ccccc1)NC(=O)CCCCCNC(=O)CN1CCN(CC(=O)O)CCN(CC(=O)O)CCN(CC(=O)O)CC1)C(C)C)C(=O)N[C@@H](CCC(=O)O)C(=O)N1CCC[C@H]1C(=O)N[C@@H](CC(=O)O)C(=O)N[C@H](C(=O)N[C@@H](CO)C(=O)N[C@@H](CCC(N)=O)C(=O)N[C@H](C(=O)N[C@@H](CCC(N)=O)C(=O)N[C@@H](CC(=O)O)C(=O)N1CCC[C@H]1C(=O)N[C@@H](CC(N)=O)C(=O)N[C@@H](CC(=O)O)C(=O)N[C@@H](CCC(N)=O)C(=O)N[C@@H](Cc1ccc(O)cc1)C(=O)N[C@@H](CCC(=O)O)C(=O)N1CCC[C@H]1C(=O)N[C@@H](Cc1ccccc1)C(=O)O)C(C)C)C(C)C [copper-64 labelled],dynamic PET,"mouse both sexes, CT26 tumour, checkpoint inhibitor-treated, tumour","intravenous, 100 µCi/mouse, 210 s",,SUVmean,2.58 SUV
CSCC[C@H](NC(=O)CNC(=O)[C@H](CCCCN)NC(=O)[C@H](CC(C)C)NC(=O)[C@@H]1CCCN1C(=O)[C@H](CO)NC(=O)[C@H](Cc1c[nH]cn1)NC(=O)[C@H](Cc1c[nH]c2ccccc12)NC(=O)[C@H](CCCNC(=N)N)NC(=O)[C@H](CC(C)C)NC(=O)[C@H](CCCNC(=N)N)NC(=O)[C@H](Cc1c[nH]c2ccccc12)NC(=O)[C@H](CS)NC(=O)CCCCCNC(=O)CN1CCN(CC(=O)O)CCN(CC(=O)O)CCN(CC(=O)O)CC1)C(=O)O [copper-64 labelled],ex vivo biodistribution,"C57BL/6J mice bearing B16-F10 tumours, liver","intravenous, 1.85 MBq, 18 h",,tissue uptake,11.1 %ID/g
CC(C)[C@@H]1NC(=O)CNC(=O)[C@H](CC(N)=O)NC(=O)[C@H](CCCNC(=N)N)NC(=O)[C@H](Cc2ccc(O)cc2)NC(=O)[C@H](C(C)C)NC(=O)[C@@H](NC(=O)[C@@H](NC(=O)[C@H](CC(N)=O)NC(=O)[C@H](Cc2c[nH]c3ccccc23)NC(=O)[C@H](C)NC(=O)[C@H](Cc2ccccc2)NC(=O)CNC(=O)[C@H](CCCCN)NC(=O)[C@H](Cc2ccccc2)NC(=O)[C@H](Cc2ccccc2)NC(=O)[C@H](CCCCN)NC(=O)OCC2c3ccccc3-c3ccccc32)C(C)C)CSSC[C@@H](C(=O)N[C@@H](Cc2c[nH]cn2)C(=O)N[C@@H](CCCNC(=N)N)C(=O)N[C@@H](CCCNC(=N)N)C(=O)N[C@@H](C)C(=O)N[C@@H](CC(N)=O)C(N)=O)NC(=O)[C@H](C(C)C)NC(=O)[C@H](CCCNC(=N)N)NC1=O,,"ICR mouse, blood","intramammary, 5 mg/kg, day 5, 3 d dosing",,eosinophils,2.42 ± 0.22%
CC[C@H](C)[C@H](NC(=O)[C@H](CCCCN)NC(=O)CNC(=O)[C@@H](NC(=O)[C@H](Cc1c[nH]cn1)NC(=O)[C@H](Cc1c[nH]cn1)NC(=O)[C@@H](NC(=O)CNC(=O)[C@H](Cc1c[nH]cn1)NC(=O)[C@H](Cc1ccccc1)NC(=O)[C@H](CC(C)C)NC(=O)[C@H](CC(C)C)NC(=O)[C@H](CCCNC(=N)N)NC(=O)[C@H](Cc1ccccc1)NC(=O)[C@@H](N)Cc1ccccc1)C(C)C)C(C)C)C(=O)N[C@@H](CCCCN)C(=O)N1CCC[C@H]1C(=O)N[C@@H](CCCNC(=N)N)C(=O)N[C@@H](C)C(N)=O,,"zebrafish embryos 28 hpf, E3 medium",1 h,,acute toxic concentration,25 µM
O=C(c1cc(Cc2n[nH]c(=O)c3ccccc23)ccc1F)N1CC(CNC2CC2)C1,,male Wistar Han rat,"oral, 15 mg/kg, day 28",,Cmax,952 ng/mL
COc1ccc(CNc2ccc3c(c2)S(=O)(=O)C=C3)cc1,,"male C57BL/6 mice, blood","intraperitoneal, 10 mg/kg, day 8, group average",,mean corpuscular haemoglobin,15.9 pg
CCCCCCCCCCCCCCCC(=O)NCCCC[C@H](NC(=O)[C@H](CCC(=O)O)NC(=O)[C@H](Cc1ccc(O)cc1)NC(=O)[C@H](CCC(=O)O)NC(=O)COCC(=O)NCCCOCCOCCOCCCNC(=O)[C@H](Cc1ccccc1)NC(=O)[C@H](CC(N)=O)NC(=O)[C@H](Cc1c[nH]cn1)NC(=O)[C@@H](NC(=O)[C@H](CC(=O)O)NC(=O)[C@H](CCC(N)=O)NC(=O)[C@H](CC(C)C)NC(=O)[C@H](CCCCN)NC(=O)[C@H](CCCCN)NC(=O)[C@H](CCCNC(=N)N)NC(=O)[C@H](CC(C)C)NC(=O)[C@H](Cc1c[nH]c2ccccc12)NC(=O)[C@H](CCC(=O)O)NC(=O)[C@@H](NC(=O)[C@H](CCCNC(=N)N)NC(=O)[C@H](CCC(=O)O)NC(=O)[C@H](CCSC)NC(=O)[C@H](CO)NC(=O)[C@H](CC(N)=O)NC(=O)[C@H](CC(C)C)NC(=O)[C@H](Cc1c[nH]cn1)NC(=O)[C@H](CCCCN)NC(=O)CNC(=O)[C@H](CC(C)C)NC(=O)[C@H](CC(N)=O)NC(=O)[C@H](Cc1c[nH]cn1)NC(=O)[C@H](CCSC)NC(=O)[C@H](CC(C)C)NC(=O)[C@H](CCC(N)=O)NC(=O)[C@@H](NC(=O)[C@H](CCC(=O)O)NC(=O)[C@H](CO)NC(=O)[C@@H](NC(=O)[C@@H](N)CO)C(C)C)[C@@H](C)CC)C(C)C)C(C)C)C(=O)N[C@@H](CCC(=O)O)C(=O)N[C@@H](Cc1ccc(O)cc1)C(=O)N[C@@H](CCC(=O)O)C(N)=O,ELISA,"female CD-1 mice, blood plasma","subcutaneous, 10 nmol/kg, 2 h",,plasma concentration,25.5 nM

# For quick reference, copied from above:
Structure (SMILES),assay,test system,conditions,how to read,endpoint,value
CSCC[C@H](NC(=O)[C@@H](NC(=O)[C@H](CC(C)C)NC(=O)[C@@H](NC(=O)[C@H](Cc1c[nH]cn1)NC(=O)CCCCCNC(=O)[C@H](CCCNC(=N)N)NC(=O)[C@H](CCCNC(=N)N)NC(=O)[C@H](CCCNC(=N)N)NC(=O)[C@H](CCC(N)=O)NC(=O)[C@H](CCCNC(=N)N)NC(=O)[C@H](CCCNC(=N)N)NC(=O)[C@H](CCCCN)NC(=O)[C@H](CCCCN)NC(=O)[C@H](CCCNC(=N)N)NC(=O)CNC(=O)[C@@H](N)Cc1ccc(O)cc1)C(C)C)C(C)C)C(=O)N[C@@H](CS)C(=O)N[C@@H](C)C(=O)N[C@H](C(N)=O)[C@@H](C)O,,C57BL/6J mice,"Alzet osmotic pump, 3 mg/kg, 8 weeks",,MCHC,31.3 g/dL and 30.7 g/dL and 30.3 g/dL
